Experimental data of several laboratories.
Compare with care: the assays were run in different laboratories. “And” joins repeats or separate records; there may be more than shown.
UniProt P51575, sequence (whole entry, unmodified, looked up): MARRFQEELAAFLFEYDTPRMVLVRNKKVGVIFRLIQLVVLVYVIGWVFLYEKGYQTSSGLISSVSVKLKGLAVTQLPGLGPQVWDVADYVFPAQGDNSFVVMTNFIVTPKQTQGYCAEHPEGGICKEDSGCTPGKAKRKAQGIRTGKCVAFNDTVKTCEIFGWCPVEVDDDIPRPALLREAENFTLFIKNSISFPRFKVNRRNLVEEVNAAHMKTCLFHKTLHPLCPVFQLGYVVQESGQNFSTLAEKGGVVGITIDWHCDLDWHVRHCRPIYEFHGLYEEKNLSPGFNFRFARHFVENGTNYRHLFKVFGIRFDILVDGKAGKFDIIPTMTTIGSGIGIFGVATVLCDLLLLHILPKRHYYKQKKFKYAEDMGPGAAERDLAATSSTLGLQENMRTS
UniProt P31641, sequence (whole entry, unmodified, looked up): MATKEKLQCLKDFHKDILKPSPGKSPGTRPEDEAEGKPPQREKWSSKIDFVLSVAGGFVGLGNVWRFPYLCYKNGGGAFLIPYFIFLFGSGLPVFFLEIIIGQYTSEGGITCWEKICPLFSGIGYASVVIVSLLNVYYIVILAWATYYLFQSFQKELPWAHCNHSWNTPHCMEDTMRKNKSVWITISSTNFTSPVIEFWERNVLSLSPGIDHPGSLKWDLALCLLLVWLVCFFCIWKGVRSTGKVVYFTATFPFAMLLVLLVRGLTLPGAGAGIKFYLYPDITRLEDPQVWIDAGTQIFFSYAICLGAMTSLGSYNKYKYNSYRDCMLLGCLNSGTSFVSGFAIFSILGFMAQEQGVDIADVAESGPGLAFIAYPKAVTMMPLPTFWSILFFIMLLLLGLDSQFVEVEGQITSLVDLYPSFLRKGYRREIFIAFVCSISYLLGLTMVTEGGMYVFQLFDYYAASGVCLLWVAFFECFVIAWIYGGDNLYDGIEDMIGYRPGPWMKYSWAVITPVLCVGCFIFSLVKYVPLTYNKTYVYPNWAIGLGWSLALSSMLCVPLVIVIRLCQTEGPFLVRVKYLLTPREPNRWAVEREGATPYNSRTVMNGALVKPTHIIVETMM
UniProt Q9UK32, sequence (whole entry, looked up): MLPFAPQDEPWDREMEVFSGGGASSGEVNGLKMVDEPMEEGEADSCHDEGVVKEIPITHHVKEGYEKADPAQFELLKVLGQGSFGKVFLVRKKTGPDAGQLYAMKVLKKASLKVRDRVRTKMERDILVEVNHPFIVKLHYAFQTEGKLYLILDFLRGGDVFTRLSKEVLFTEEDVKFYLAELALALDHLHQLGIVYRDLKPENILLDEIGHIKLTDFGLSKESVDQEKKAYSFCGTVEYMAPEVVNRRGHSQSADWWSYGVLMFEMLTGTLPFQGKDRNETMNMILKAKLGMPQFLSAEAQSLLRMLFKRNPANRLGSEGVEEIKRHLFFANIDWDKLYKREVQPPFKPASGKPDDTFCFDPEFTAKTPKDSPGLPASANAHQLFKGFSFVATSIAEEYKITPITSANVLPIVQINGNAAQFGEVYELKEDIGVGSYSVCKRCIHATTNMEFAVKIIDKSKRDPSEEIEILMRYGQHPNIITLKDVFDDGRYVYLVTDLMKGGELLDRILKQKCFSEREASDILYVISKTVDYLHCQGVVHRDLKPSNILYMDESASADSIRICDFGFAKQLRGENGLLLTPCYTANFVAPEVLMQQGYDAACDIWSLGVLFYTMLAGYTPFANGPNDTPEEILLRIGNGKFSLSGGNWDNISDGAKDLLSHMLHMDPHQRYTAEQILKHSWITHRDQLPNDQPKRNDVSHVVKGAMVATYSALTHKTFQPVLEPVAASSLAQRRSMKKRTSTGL
UniProt Q9Y2J8, sequence (whole entry, looked up): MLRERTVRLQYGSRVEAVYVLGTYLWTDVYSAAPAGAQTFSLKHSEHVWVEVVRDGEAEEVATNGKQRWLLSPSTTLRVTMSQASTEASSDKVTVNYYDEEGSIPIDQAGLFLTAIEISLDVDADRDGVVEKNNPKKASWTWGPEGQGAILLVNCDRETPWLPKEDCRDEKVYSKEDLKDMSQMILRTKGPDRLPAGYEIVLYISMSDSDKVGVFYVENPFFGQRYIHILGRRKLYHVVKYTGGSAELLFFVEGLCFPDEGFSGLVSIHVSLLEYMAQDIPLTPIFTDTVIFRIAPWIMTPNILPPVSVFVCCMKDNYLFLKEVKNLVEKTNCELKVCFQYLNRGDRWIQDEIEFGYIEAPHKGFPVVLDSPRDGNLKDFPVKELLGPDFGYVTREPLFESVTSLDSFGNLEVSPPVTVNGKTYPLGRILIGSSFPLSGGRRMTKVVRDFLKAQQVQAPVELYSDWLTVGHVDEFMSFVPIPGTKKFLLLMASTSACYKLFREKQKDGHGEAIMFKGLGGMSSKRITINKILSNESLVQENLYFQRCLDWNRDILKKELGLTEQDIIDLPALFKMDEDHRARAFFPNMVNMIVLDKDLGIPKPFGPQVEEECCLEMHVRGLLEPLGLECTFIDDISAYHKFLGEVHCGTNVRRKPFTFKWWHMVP
UniProt Q9HBX9, sequence (whole entry, unmodified, looked up): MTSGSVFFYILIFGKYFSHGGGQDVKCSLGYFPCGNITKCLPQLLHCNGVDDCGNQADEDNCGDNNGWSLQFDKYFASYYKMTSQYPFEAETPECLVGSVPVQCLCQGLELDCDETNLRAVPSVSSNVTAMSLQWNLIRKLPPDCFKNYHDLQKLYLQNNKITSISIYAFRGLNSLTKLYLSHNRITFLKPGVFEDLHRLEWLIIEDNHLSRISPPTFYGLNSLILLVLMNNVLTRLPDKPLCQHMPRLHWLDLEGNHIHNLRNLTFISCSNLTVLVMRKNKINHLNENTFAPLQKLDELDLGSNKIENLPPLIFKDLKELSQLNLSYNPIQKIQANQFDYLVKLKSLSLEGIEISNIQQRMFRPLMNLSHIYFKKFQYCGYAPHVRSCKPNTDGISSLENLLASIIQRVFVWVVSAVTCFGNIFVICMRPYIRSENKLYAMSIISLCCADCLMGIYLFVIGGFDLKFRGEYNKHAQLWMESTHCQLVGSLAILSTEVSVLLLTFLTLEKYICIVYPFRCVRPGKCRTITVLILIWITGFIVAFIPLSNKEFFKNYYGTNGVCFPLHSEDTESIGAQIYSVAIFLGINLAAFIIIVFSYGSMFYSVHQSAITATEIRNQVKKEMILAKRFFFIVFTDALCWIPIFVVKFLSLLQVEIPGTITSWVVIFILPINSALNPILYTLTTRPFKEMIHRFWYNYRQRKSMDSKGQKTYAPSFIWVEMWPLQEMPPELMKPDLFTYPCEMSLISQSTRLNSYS

`CC[C@H](C)[C@@H]1NC(=O)[C@H](Cc2ccc(O)cc2)NC(=O)[C@H](CC(C)C)NC(=O)[C@@H]2CCCN2C(=O)[C@@H](NC(=O)[C@H](CCCNC(=N)N)NC(=O)[C@H](CCCNC(=N)N)NC(C)=O)CSSC[C@@H](C(=O)N[C@@H](CCCNC(=N)N)C(=O)N[C@@H](CCCNC(=N)N)C(N)=O)NC(=O)[C@H](C(C)C)NC(=O)[C@@H]2CCCN2C(=O)[C@H](CC(=O)O)NC(=O)[C@H](Cc2cc(F)c(F)c(F)c2)NC(=O)[C@H](Cc2cscn2)NC1=O` — result for “lowest bound protein concentration”: 0.62 µM (GTPase KRas, GDP-bound (KRAS, Homo sapiens, UniProt P01116, G12D); affinity selection mass spectrometry; mixture library 2, added: protein titration up to 5 µM; lower is stronger binding).
With `Nc1ncnc2c1ncn2[C@@H]1O[C@H](COP(=O)(O)CP(=O)(O)OP(=O)(O)O)[C@@H](O)[C@H]1O` the specific binding was 74.5 CCPM and 48.5 CCPM (P2X purinoceptor 1 (P2RX1, Homo sapiens, UniProt P51575, R139A); saturation binding; HEK293; 1 nM).
Under citrullination, `CCn1c(-c2nc3cc(C(=O)N4CCC[C@@H](N)C4)cc(OC)c3n2C)cc2cccnc21` is recorded as “no effect” (PADI2 (Homo sapiens, UniProt Q9Y2J8); enzyme activity, cell lysate; HEK293 expressing PADI2; 100 µM, added: calcium 2 mM).
For `O=C(O)C1CCCNC1` (stereo not drawn), “normalised MST signal” read 0.297 (SLC6A6 (Homo sapiens, UniProt P31641, Y138A); binding, microscale thermophoresis; 7.81 µM, room temperature, added: 50 nM labelled protein; higher = more binding).
Under “fast dissociation fraction”, `CC[C@H](C)[C@@H]1NC(=O)[C@H](C)NC(=O)[C@H]([C@@H](C)CC)NC(=O)[C@H](CCC(N)=O)NC(=O)[C@H](C)NC(=O)[C@H](CCCNC(=N)N)NC(=O)[C@H](C(C)C)NC(=O)[C@H](CC(C)C)NC(=O)[C@H](CCC(=O)O)NC(=O)[C@H](CCCNC(=N)N)NC(=O)CNC(=O)[C@@H](NC(=O)[C@H](CC(C)C)NC(=O)[C@H](CCCCN)NC(=O)[C@@H](NC(=O)[C@@H](NC(=O)[C@H](CCC(=O)O)NC(=O)[C@H](CCC(=O)O)NC(=O)[C@H](CCSC)NC(=O)[C@H](Cc2c[nH]c3ccccc23)NC(=O)[C@H](CO)NC(=O)[C@@H](N)CC(=O)O)C(C)C)[C@@H](C)CC)CSSC[C@@H]2NC(=O)[C@@H](NC(=O)[C@H](CCCCN)NC(=O)[C@H](CC(N)=O)NC(=O)[C@H](C)NC(=O)[C@H](CC(C)C)NC(=O)[C@H](C)NC(=O)[C@H](CO)NC(=O)[C@H](Cc3ccc(O)cc3)NC(=O)[C@H](CC(C)C)NC(=O)[C@H](CCC(N)=O)NC(=O)c3ccc(-c4c5ccc(=[N+](C)C)cc-5oc5cc(N(C)C)ccc45)c(C(=O)[O-])c3)CSSC[C@H](NC(=O)CNC(=O)[C@H](C(C)C)NC(=O)[C@H](Cc3c[nH]cn3)NC2=O)C(=O)N[C@@H]([C@@H](C)O)C(=O)N[C@@H](CCCCN)C(=O)N[C@@H](CCCNC(=N)N)C(=O)N[C@@H](CO)C(=O)N[C@@H](CC(C)C)C(=O)N[C@@H](C)C(=O)N[C@@H](CCCNC(=N)N)C(=O)N[C@@H](Cc2ccccc2)C(=O)N[C@H](C(=O)O)CSSC[C@@H](C(=O)NCC(=O)N[C@@H](CCSC)C(=O)N[C@@H](CO)C(=O)N[C@H](C(=O)N[C@@H](Cc2c[nH]c3ccccc23)C(=O)N[C@@H](CO)C(=O)O)[C@@H](C)O)NC1=O` is recorded as 54% (Relaxin receptor 1 (RXFP1, Homo sapiens, UniProt Q9HBX9, F76A/Y80A); binding, NanoBRET; concentration not given, added: relaxin 10 nM).
`COc1cc(Nc2ncc3c(n2)-c2ccc(Cl)cc2C(c2c(F)cccc2OC)=NC3)ccc1C(=O)O` gave a remaining activity of 107% (PRKCG; kinase activity; 1 µM).
The relative fluorescence of `CCCCCCO` is reported as 65.7% (uncharacterized protein (Spodoptera exigua, UniProt F1CEY0); binding, 1-NPN competitive displacement; protein 2.0 µM, added: 1-NPN 20 µM; baseline: 1-NPN without compound, lower = stronger binding).
For `CC(C)C[C@H](N)C(=O)Nc1ccc2ccccc2c1`, the Km was 2 µM (Puromycin-sensitive aminopeptidase (Rattus norvegicus, UniProt F1M9V7); substrate).
The remaining binding of `C=CC(=O)N1CCC(C(=O)NCC(=O)N2CCN(c3nc(-c4cnc(N)nc4C(F)F)nc(N4CCOCC4)n3)CC2)CC1` is reported as 95% (Ribosomal protein S6 kinase alpha-6, C-terminal kinase domain (RPS6KA6, Homo sapiens, UniProt Q9UK32); KINOMEscan; 1 µM).

Some of these lines once more:
For `CC(C)C[C@H](N)C(=O)Nc1ccc2ccccc2c1`, the Km was 2 µM (Puromycin-sensitive aminopeptidase (Rattus norvegicus, UniProt F1M9V7); substrate).
